Assay results collected from several papers.
Parts stem from different laboratories: compare values within a part only.

Study 1 — method: protein-binding microarray; form: double-stranded DNA, one strand shown; sample: in vitro; concentration: 2200 nM top; setting: 60-bp whole probe; together with: salmon DNA 0.4 mg/ml; relative to: random background probes; direction: higher = stronger binding; all sequences stand within: GCCTAGCAC … GTCTTGATTCGCTTGACGCTGCTG
Target: Interferon regulatory factor 7, full length, phosphomimetic (IRF7, Homo sapiens, UniProt Q92985, residues 1-503, S471D/S472D/S475D/S476D/S477D/S483D/S484D/S487D)
Chain of UniProt Q92985 (whole entry, unmodified, looked up): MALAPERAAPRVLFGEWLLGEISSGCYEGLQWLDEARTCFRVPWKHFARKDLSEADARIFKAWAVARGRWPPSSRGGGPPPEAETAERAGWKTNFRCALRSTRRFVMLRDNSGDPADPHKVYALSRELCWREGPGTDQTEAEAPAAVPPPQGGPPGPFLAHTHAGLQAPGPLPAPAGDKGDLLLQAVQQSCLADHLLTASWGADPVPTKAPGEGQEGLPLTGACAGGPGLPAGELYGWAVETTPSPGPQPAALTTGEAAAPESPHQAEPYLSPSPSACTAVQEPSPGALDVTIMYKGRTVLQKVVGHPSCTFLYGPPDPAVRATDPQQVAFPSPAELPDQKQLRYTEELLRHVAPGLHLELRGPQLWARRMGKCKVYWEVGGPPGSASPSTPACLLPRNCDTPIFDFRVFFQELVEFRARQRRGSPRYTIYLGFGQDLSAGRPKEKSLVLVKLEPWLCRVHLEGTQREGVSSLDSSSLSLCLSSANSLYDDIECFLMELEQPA
Oligonucleotide | fitted relative affinity
TTAGGTATCAGTCTCGGTTAGTGCTAG | 0.819 z-score
GACAATCTCAGACTGGAGACGTGCTAG | -0.211 z-score
CAAGTGATGTAGCTGGGAGCGTGCTAG | -0.268 z-score
GGAGTTTCCACCCTTCTCTCGTGCTAG | 2.11 z-score
TATTTTTTTCTAATTGAAATGTGCTAG | 1.43 z-score
GACGGACTGGTTCTCCTGACGTGCTAG | -0.136 z-score
TTAGGTTTCGGTCTCGGGTAGTGCTAG | 6.43 z-score
CTAGGACTGGACACTGGGTTAGTGCTA | -0.839 z-score
TCCATTTTCAGAATTTACTTGTGCTAG | 2.62 z-score
GTTCTTTTCTGTTGTCTGTGTGTGCTA | 3.44 z-score
TTAGATCTCAGACTGGATTCGTGCTAG | 0.116 z-score
TCACATCTGGGTATTTTACTGTGCTAG | 1.02 z-score
TCAGTTCTCAGCTTGGGACTGTGCTAG | 0.971 z-score
TCAGGTTTCGGTATCGGTTAGTGCTAG | 8.23 z-score
GAAGGACTGGACTTTCGGGACGTGCTA | 2.23 z-score
TTAGGTTTCGGTTTCCGTTAGTGCTAG | 14.1 z-score
TCAGTTTTTGCTTTCTTACTGTGCTAG | 3.92 z-score
ATGCATTGTTATTTGTCAATGTGCTAG | 1.22 z-score
GACGGTTCCGGTATCGGGACGTGCTAG | 1.01 z-score
GACGGACTGGCTCTCGGGACGTGCTAG | -0.749 z-score
GACGGACTGGGGTGTCGGGACGTGCTA | -0.996 z-score
TTAGGTTTCCTACTGTTTTAGTGCTAG | 1.24 z-score
GACGGACTACTACTGCTGACGTGCTAG | 0.325 z-score
GACGGTATCCTACTTCTGACGTGCTAG | 1.08 z-score
TGCTTTCTCCCAAGTCTTGTTGTGCTA | 2.01 z-score

Study 2 — method: competition protein-binding microarray; form: double-stranded DNA, one strand shown; sample: in vitro; concentration: 2 µM; together with: Pho4 competitor, 0.05 µM; direction: higher = stronger binding; all sequences stand within: … GTCTTGATTCGCTTGACGCTGCTG
Target: Centromere-binding protein 1, full length, His-tagged (CBF1, Saccharomyces cerevisiae, UniProt P17106, residues 1-351)
Chain of UniProt P17106 (whole entry, looked up): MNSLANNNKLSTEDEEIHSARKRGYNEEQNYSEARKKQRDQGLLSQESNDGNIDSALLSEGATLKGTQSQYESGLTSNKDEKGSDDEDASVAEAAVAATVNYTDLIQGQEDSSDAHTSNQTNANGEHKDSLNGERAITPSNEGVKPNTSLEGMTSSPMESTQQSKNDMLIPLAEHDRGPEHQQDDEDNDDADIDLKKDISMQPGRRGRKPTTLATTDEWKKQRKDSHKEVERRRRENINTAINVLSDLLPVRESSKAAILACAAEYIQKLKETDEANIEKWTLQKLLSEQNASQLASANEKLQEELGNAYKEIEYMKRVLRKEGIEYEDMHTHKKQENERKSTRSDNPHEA
Setting: whole 60-bp probe, lowest competitor level
Oligonucleotide | fluorescence intensity [a.u.]
CTTCTGTAAATTTGCAGCGTGGGTGGACGCGCCCCG | 72.1
TAGGTGCCGTACTATCGCGTGCCAGCACCATGACAG | 101
AGACTGGGTCTCAGTCAGCTGAACAGAAAACTTCAA | 181
AAAGCGGTAATTTGTCACCCGACTTCACATATCTAT | 90.5
GGTTTTGTAGGACTAGGTGTGATGAGTGGTGGCTTT | 81.9
CACCATTTGATGTTGCACATGCGTTCGATATACCCC | 125
CCCGTTAGAATCCATCACGTAACCTGGTGGCGCTTT | 79.3
CTTTTCCGGTTGAGACTTGAGCAAGTGCTTCAGTTT | 72.6
AACCGGGTTATTTTGCACGTGATGGGCACTTGGGAG | 3730
CCGGTTGACGGGGTTCGCGTGATTGTGCGATTCGTT | 97.8
TCCGTACTACTGGCGTACGTGCGATGAATTAATCGG | 70.2
GGGCTGGATAGCCATCAGGTGCTGCACAGATTACTA | 108
TGCGCAACAACTTTTCACGTGTACTTATGTCTAGAA | 1080
CTAACGAAGGTTTGTCACGTGTTTTACAAGCCAAGT | 4220
CTAACGAAGGTTTGTCACTACACTTACAAGCCAAGT | 91.9
AGACATAGGGAGATGCATGTGTAGCGGATCCGCCTG | 71.7
CTTTCCCGATCTTGTCATGTGGGTGTAGCACATTTG | 182
TCGGAGGCCACTCACCACGGGAGGAGGCCAAGGCTG | 60
AAATTACTAAGTTGCCCGGTGGGTGACGCCGTATGA | 53.3
CGTCCTAGTGATTGTCACTGGACTTCCATGAGGAAG | 109
CCGCAAGTATGCTGTCATGTGTGCTTAGCAATTACG | 247
GGCCAGATCAATCAGCTCGTGTGGATAGGTTAGGTT | 63.7
GGCCTTAACGGCAGCATCGTGGATTAACTTGGATTT | 70.3
CATACCCAACCTTGCCACGTGTTTTAAGATATTTGT | 1250
GAACCAGAGATGTTCCACGTGAAATATTACCAACCA | 776

Study 3 — method: RNA Bind-n-Seq; form: RNA; sample: in vitro; concentration: 365 nM; relative to: no-protein control; direction: higher = stronger binding
Target: RNA binding protein fox-1 homolog 2, RRM domain, GST-SBP tag (RBFOX2, Homo sapiens, UniProt O43251-10, residues 100-194)
Setting: natural RNA segment, single round, ends assumed
All sequences stand within: GGGAGUUCUACAGUCCGACGAUC … UGGAAUUCUCGGGUGCCAA
Residues (chain): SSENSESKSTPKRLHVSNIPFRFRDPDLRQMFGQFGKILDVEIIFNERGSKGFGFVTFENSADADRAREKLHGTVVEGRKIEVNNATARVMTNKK
Oligonucleotide | RBNS enrichment (R)
CACCCUACGAAGGCCAUGCUGUGCAAACGUGCUCAGGAUCUCAGUAACGGGCCAACCCCCAACUACAGAUGACUUUUUAAUAUUGUAAAAUAUUUUCUGCUUUUUUGACU | 0.556
GGACUUCGACCAGCAUCUGAAGGGAACCAGGUUGUGUGUGCUUGCAGUUUGCUCCCUGUUGACAUAGGGAAAAACUGAGUGUCAUAGGCAGUAUUUCACAGUGGACAUUU | 0.37
UCCUUUUUCCAUUUAUCUGUGGAAACCAACAGAUAUUGCUCUAUAUUUUUUGUAUUAGUAUGGUUUGAGACAACAUAUGGAAAAUGUUCACAUUUGUAGAUUAAGCUGGA | 0.999
UCUAAACCUGAAGUAUAAUUAUAUGCAGUGCUUCUUAAGGCUUCAUAAAAUAAUUUUCCAACCUUUUAAAAAUAUGUUUCUUUCAUUGUUUUAUACCUAACCUUGCAGAC | 0.745
CCAGUGCCGUCCUGCUGAUGUGGUAGGCUAGCAAUAUUUUGGUUAAAAUCAUGUUUGUGACUGUAACCAUUUGUAUGAAUUAUUUUAAAGAAAUAAAAAUCCUGGAAAGA | 0.744
UCUUGGAAACUAUGACAUCAAAGAUAGACUUUUGCCUAAGUGGCUUAGCUGGGUCUUUCAUAGCCAAACUUGUAUAUUUAAAUUCUUUGUAAUAAUAAUAUCCAAAUCAU | 0.451
ACCUUUCUUUAGUGAAUGUCAAAUCAGAAACAAAUUGUAGACCUAGGAACUGUAUUAAAGUUUAGUUUACUAUAGAUUGGUCCCCACUGAAGACUUUCUCCACUCUGACC | 0.426
UGGAACUGGCAACCUUGAAGGGUGAUUCCCCCCCACCCCCAGAGGAUCAGCUGCCUGUGGUUGGGACAGGGCACACCACCUUCCCUCAGACGGUCUUGCUAAGUAUAUGA | 2.28
GCUUCAUAGAUGGCAUAUACCCUUCACCUUCAACUAACAGGAUACUCACCCCAAAGGCGCAGUCAGGAGGGGAGGGAACCCCAGCUGGGUUAGAAUUGGAAGGGAAGAGG | 0.429
AGAAAGAUCUGGAAGAAGGCCUGGCAGUGAAUCCAAGGACUCUGGGCCCCCAACAAUAGAUGGUAGCGUAAGUCUGGAGCAGCGGUGUUUCACCACCAAAUGCCUUUCCA | 0.297
AGGCUCCCUUGUGUGUCCCUAUACCCUCCAGCCCUCCUUUAGGGUUCUUUUGGGGGUAAGGGGCUAACUGCUCAAGAAAAUCUUGAUCCCCUCUCUUGUCUCCAUUAUUU | 0.41
UUUUUUCUUGCAUUGACAUUAUUGACGUUGAGGACCUCAUCAGAUCAAUUUAAAAGUGAGUGUGGAAGGGAAACGAAAGUCAACAUAUUUUUAAAAGAUCUUAAAAAUAA | 0.301

Study 4 — method: RNA Bind-n-Seq; form: RNA; sample: in vitro; concentration: 20 nM; setting: 6-mer, flanks averaged, single round; together with: 150 mM KCl; relative to: input library; direction: higher = stronger binding
Target: TAR DNA-binding protein 43, full length, His tag (TARDBP, Homo sapiens, UniProt Q13148, residues 1-414)
Oligonucleotide | 6-mer enrichment (R)
GGGGUU | 3.31
UGAACA | 0.67
GUCGGA | 1.36
GAAUUU | 0.636
CGUUAC | 0.588
CAAAAA | 0.717
GAUCUA | 0.602
ACAGAG | 1.04
ACGCCG | 0.85
GUACGA | 0.954
UAGAGA | 0.859
UCAGAU | 0.58
UAGACU | 0.619
UGCGUU | 0.763
AAGCCC | 0.637
CCGGCU | 0.79
UGCGGU | 1.36

A few entries again (study 2):
Oligonucleotide | fluorescence intensity [a.u.]
AGACATAGGGAGATGCATGTGTAGCGGATCCGCCTG | 71.7
CTTTCCCGATCTTGTCATGTGGGTGTAGCACATTTG | 182
TCGGAGGCCACTCACCACGGGAGGAGGCCAAGGCTG | 60
AAATTACTAAGTTGCCCGGTGGGTGACGCCGTATGA | 53.3
CGTCCTAGTGATTGTCACTGGACTTCCATGAGGAAG | 109
